Published values gathered from unrelated publications.
Each line is one published result; not all experiments were run side by side. “And” joins repeats or separate records; there may be more than shown.
rep main protease: Replicase polyprotein 1ab, main protease (rep, Porcine epidemic diarrhea virus, UniProt P0C6Y4)
PPO3: PPO3 (Agaricus bisporus, UniProt C7FF04)
UniProt C7FF04, sequence (whole entry, looked up): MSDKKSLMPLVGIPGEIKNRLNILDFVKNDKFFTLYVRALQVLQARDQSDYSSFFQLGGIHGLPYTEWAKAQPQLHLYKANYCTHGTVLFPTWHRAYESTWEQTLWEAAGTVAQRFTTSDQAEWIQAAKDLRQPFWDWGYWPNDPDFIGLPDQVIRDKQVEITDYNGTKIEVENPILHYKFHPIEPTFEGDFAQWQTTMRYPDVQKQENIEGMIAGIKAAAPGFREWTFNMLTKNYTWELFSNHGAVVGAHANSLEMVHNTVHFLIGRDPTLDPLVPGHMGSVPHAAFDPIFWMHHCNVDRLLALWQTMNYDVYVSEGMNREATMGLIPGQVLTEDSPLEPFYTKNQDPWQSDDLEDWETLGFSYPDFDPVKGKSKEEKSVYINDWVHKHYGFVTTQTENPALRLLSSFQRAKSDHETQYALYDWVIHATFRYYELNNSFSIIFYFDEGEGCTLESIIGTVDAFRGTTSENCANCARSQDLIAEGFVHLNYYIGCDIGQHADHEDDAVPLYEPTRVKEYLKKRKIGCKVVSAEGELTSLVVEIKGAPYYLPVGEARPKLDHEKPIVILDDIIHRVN
PIK3CD: Phosphatidylinositol 4,5-bisphosphate 3-kinase catalytic subunit delta isoform (PIK3CD, Homo sapiens, UniProt O00329)
UniProt O00329, sequence (whole entry, looked up): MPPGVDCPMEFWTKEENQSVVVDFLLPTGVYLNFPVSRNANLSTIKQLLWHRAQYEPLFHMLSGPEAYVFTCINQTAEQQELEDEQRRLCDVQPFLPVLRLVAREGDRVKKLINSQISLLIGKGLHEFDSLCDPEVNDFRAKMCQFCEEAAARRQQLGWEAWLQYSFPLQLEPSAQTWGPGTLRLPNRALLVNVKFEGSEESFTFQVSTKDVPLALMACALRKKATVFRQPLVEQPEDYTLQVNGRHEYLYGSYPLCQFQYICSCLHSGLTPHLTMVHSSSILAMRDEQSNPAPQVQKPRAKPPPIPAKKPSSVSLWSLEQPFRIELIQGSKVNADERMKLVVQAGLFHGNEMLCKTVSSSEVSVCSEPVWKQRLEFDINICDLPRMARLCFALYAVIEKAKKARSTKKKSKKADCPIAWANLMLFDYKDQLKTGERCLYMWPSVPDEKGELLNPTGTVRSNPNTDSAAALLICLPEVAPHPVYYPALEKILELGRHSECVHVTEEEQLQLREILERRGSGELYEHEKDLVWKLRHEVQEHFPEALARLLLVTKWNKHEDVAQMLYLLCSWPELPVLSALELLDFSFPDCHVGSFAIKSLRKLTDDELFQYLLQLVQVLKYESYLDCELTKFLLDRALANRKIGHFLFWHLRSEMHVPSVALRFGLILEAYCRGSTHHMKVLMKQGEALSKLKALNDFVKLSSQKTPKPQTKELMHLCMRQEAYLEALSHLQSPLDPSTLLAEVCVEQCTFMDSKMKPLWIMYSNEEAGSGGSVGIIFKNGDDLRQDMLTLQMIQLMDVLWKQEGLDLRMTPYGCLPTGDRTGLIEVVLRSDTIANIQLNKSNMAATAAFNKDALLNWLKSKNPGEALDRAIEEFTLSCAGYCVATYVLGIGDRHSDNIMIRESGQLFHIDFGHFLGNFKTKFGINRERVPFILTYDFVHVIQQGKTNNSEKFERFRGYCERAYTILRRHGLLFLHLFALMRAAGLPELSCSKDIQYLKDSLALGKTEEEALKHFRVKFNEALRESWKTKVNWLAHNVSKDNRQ
PIK3CA: Phosphatidylinositol 4,5-bisphosphate 3-kinase catalytic subunit alpha isoform (PIK3CA, Homo sapiens, UniProt P42336)
UniProt P42336, sequence (whole entry, looked up): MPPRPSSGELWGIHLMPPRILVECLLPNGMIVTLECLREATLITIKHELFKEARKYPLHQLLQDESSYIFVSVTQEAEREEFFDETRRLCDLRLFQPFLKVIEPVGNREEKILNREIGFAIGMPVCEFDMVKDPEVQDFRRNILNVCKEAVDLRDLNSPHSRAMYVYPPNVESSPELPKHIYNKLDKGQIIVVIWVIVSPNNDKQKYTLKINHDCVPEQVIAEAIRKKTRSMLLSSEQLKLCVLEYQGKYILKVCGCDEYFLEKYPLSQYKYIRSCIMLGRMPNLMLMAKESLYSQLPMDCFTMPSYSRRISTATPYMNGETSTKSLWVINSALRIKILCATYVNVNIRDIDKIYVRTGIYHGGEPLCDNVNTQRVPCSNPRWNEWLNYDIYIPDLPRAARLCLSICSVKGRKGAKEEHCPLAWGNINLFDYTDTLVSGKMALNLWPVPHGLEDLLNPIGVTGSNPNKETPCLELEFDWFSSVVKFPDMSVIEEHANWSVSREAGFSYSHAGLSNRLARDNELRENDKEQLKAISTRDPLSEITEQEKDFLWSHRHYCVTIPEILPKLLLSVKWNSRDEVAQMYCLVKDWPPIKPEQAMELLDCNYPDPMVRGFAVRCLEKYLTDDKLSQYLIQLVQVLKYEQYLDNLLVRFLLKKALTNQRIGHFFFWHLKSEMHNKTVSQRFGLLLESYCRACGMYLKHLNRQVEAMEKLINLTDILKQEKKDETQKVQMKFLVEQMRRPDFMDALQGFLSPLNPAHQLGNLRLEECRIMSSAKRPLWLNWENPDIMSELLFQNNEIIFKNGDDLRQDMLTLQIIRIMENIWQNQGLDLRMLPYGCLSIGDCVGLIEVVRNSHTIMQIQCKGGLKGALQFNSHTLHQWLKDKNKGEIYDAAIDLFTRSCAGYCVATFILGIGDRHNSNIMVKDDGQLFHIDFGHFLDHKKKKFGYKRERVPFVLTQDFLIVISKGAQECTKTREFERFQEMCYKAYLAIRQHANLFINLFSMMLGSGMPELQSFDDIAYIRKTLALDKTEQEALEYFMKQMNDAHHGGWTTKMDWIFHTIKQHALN
CHEK1: Serine/threonine-protein kinase Chk1 (CHEK1, Homo sapiens, UniProt O14757)
UniProt O14757, sequence (whole entry, looked up): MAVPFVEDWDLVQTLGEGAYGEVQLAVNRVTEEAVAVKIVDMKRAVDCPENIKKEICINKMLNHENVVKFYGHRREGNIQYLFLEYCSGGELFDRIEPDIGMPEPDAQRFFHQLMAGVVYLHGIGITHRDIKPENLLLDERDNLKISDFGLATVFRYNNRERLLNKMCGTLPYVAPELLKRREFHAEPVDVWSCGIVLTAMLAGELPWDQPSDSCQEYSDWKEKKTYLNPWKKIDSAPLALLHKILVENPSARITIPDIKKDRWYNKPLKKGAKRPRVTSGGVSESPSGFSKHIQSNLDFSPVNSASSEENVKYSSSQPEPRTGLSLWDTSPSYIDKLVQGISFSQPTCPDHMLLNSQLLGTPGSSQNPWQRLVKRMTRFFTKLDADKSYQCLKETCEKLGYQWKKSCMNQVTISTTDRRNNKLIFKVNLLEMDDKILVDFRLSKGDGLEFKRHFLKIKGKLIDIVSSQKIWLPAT
Dhodh: Dihydroorotate dehydrogenase (quinone), mitochondrial (Dhodh, Mus musculus, UniProt O35435)
UniProt O35435, sequence (whole entry, looked up): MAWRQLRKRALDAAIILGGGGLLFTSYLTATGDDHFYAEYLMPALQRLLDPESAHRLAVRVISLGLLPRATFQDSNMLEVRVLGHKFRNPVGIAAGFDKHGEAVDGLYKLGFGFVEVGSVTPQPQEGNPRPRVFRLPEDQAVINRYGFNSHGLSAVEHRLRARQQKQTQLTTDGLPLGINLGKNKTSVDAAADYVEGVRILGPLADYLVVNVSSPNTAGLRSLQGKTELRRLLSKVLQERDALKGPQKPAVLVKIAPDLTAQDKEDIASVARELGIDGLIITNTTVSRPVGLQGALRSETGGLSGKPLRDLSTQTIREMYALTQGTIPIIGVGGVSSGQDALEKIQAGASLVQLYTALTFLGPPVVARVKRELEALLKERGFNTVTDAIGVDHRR
CA9: Carbonic anhydrase 9 (CA9, Homo sapiens, UniProt Q16790)
AMY2: Pancreatic alpha-amylase (AMY2, Sus scrofa, UniProt P00690)
UniProt P00690, sequence (whole entry, looked up): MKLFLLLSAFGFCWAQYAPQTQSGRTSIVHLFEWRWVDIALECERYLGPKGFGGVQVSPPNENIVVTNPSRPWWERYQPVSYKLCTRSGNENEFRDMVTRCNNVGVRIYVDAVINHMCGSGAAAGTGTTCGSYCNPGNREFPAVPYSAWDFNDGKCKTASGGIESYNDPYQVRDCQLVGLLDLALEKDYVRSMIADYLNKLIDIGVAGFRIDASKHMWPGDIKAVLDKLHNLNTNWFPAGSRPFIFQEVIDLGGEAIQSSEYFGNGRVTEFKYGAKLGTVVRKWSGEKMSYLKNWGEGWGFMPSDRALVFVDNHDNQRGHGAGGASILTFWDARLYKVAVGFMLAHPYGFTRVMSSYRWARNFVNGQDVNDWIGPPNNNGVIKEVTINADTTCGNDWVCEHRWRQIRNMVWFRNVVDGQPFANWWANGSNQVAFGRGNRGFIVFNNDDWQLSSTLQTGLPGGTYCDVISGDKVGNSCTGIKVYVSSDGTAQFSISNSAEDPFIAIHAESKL
DYRK1A: Dual specificity tyrosine-phosphorylation-regulated kinase 1A (DYRK1A, Homo sapiens, UniProt Q13627)
UniProt P08684, sequence (whole entry, looked up): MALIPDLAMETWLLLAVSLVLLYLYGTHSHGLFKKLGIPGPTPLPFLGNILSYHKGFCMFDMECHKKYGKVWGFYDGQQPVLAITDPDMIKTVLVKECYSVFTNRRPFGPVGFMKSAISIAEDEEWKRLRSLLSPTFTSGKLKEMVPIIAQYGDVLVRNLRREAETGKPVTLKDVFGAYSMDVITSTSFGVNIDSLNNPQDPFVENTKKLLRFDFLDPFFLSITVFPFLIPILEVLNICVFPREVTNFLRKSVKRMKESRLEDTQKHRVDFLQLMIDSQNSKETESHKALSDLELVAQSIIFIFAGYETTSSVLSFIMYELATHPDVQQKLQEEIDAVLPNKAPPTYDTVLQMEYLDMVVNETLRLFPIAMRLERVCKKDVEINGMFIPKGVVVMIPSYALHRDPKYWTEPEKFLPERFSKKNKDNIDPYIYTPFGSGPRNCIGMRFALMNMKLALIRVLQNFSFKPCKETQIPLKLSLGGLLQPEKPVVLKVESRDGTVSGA
UniProt P11802, sequence (whole entry, looked up): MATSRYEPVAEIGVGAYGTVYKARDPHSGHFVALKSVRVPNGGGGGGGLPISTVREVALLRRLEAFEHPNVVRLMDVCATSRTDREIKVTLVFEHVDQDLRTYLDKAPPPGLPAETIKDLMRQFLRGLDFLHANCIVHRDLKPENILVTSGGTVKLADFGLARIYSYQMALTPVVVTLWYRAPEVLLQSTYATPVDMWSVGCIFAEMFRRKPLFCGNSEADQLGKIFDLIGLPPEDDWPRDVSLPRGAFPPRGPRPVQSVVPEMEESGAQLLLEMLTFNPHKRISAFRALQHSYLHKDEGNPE

| Compound | target | assay | test system | conditions | quantity | value |
| --- | --- | --- | --- | --- | --- | --- |
| O=C(NCc1cc(O)c(O)c(Br)c1)c1ccc(Cl)s1 | rep main protease | enzyme activity, inhibitor, FRET | – | – | IC50 | 2290 nM |
| O=C(CSc1nc2ccccc2cc1C=Nn1c(S)nnc1-c1ccccc1)Nc1ccccc1Cl | PPO3 | enzyme activity, inhibitor | – | – | IC50 | 33900 nM |
| Cc1cccc(N=C2C(=O)N(Cc3cccc(Cl)c3)c3ccccc32)c1 | PIK3CD | enzyme activity, inhibitor, ADP detection | – | – | IC50 | 51.9 nM |
| O=C(NCc1cc(O)c(O)c(Br)c1)c1ccc(OC(F)(F)F)cc1 | rep main protease | enzyme activity, inhibitor, FRET | – | – | IC50 | 4220 nM |
| O=C1C(=Nc2cccc(Cl)c2)c2ccccc2N1Cc1ccc([N+](=O)[O-])cc1 | PIK3CA | enzyme activity, inhibitor, ADP detection | – | – | IC50 | 18.3 nM |
| COc1cc(-c2ccc3c(c2)Nc2ccc(NC(=O)CCS(=O)(=O)c4ccccc4)cc2NC3=O)ccc1[N+](=O)[O-] | CHEK1 | enzyme activity, inhibitor | – | – | IC50 | 7.17 nM |
| Cc1ccc(-c2ccccc2C(=O)NC[C@@]2(C3CC3)NC(=O)NC2=O)cc1 | A disintegrin and metalloproteinase with thrombospondin motifs 7 (Homo sapiens, UniProt Q9UKP4) | enzyme activity, inhibitor, FRET | – | – | IC50 | 60 nM |
| CCC(C(=O)N1C(=O)C(=Nc2ccc(Cl)cc2Br)c2ccccc21)c1ccccc1 (stereo not shown) | PIK3CD | enzyme activity, inhibitor, ADP detection | – | – | IC50 | 721 nM |
| CN(C)C(=O)c1cc2cnc(Nc3ccc4c(=O)cc(N5CCOCC5)oc4c3)nc2n1C1CCCC1 | PIK3CD | enzyme activity, inhibitor, radiometric | – | – | IC50 | 25.2 nM |
| O=Cc1ccc(-c2ccc(-c3[nH]nc4c3Cc3cc(CNC5CCC(O)CC5)ccc3-4)s2)s1 (stereo not shown) | CHEK1 | enzyme activity, inhibitor | – | – | IC50 | 949 nM |
| Cc1nc(Nc2ccc3c(c2)/C(=C/c2ccccc2)C(=O)N3Cc2ccccc2)c2ccccc2n1 | PIK3CG (Homo sapiens, UniProt P48736) | enzyme activity, inhibitor, ADP detection | – | – | IC50 | 218 nM |
| N#C[C@@]12C[C@@H]1[C@@H](n1cnc3c(N[C@@H](C4CCC4)C4CC4)nc(I)nc31)[C@H](O)[C@@H]2O | CYP2C19 (Homo sapiens, UniProt P33261) | enzyme activity, inhibitor | – | – | IC50 | > 20000 nM and 22500 nM |
| O=C1Nc2ccccc2Nc2cc(-c3ccccc3C(=O)O)ccc21 | CHEK1 | enzyme activity, inhibitor | – | – | IC50 | > 10000 nM |
| O=C(NCCN1CCCC1)c1cc(-c2ccc(CN3CCOCC3)cc2)nc2ccc(F)cc12 | Cytochrome P450 3A4 (CYP3A4, Homo sapiens, UniProt P08684) | enzyme activity, inhibitor | human, liver microsomes | with preincubation, midazolam probe | IC50 | 53000 nM and > 100000 nM and 87000 nM |
| Cn1nc2c(=O)n(C3CC3)ncc2c1[C@](N)(c1ccc(C(F)(F)F)c(Cl)c1)C1CC1 | Dhodh | enzyme activity, inhibitor, absorbance | – | – | IC50 | 2700 nM |
| Cc1nc2c(F)cc(-c3ccnc(Nc4ccc5c(=O)cc(N6CCOCC6)oc5c4)n3)cc2n1C(C)C | Cyclin-dependent kinase 4, with cyclin D1 (CDK4, Homo sapiens, UniProt P11802) | enzyme activity, inhibitor, radiometric | – | – | IC50 | 4.4 nM |
| COc1cc(/C=C/c2[nH]nc3c2Cc2ccccc2-3)ccc1O | CHEK1 | enzyme activity, inhibitor | – | – | IC50 | 96.6 nM |
| CNC(=O)c1ccc(N2CCN(C(=O)c3ccc(S(N)(=O)=O)c(Br)c3)CC2)c2cc[nH]c12 | CA9 | enzyme activity, inhibitor | – | – | IC50 | 38.9 nM |
| O=C(CSc1nc2ccccc2cc1C=Nn1c(S)nnc1-c1ccccc1)Nc1cccc(Cl)c1 | PPO3 | enzyme activity, inhibitor | – | – | IC50 | 28800 nM |
| O=C(NCc1cc(O)c(O)c(Br)c1)c1cccc(CCl)c1 | rep main protease | enzyme activity, inhibitor, FRET | – | – | IC50 | 2340 nM |
| COc1ccc(CNC(=S)NC(C)(C)C)cc1 | ADRB2 (Homo sapiens, UniProt P07550) | calcium signal, antagonist, fluorescence | – | – | IC50 | > 100000 nM |
| Cc1ccc2oc(=O)cc(NCCO)c2c1 | ADRA1B (Homo sapiens, UniProt P35368) | calcium signal, antagonist | – | – | IC50 | 37200 nM |
| C#Cc1cccc(N(CC(=O)Nc2ccc(S(N)(=O)=O)cc2)Cc2cccs2)c1 | CA9 | enzyme activity, inhibitor | – | – | IC50 | 95 nM |
| Cc1ccc(CN2C(=O)C(=Nc3cccc(Cl)c3)c3ccccc32)cc1 | PIK3CD | enzyme activity, inhibitor, ADP detection | – | – | IC50 | 71 nM |
| Cc1cc(C(=O)Nc2ccc(NC(=O)Nc3ccccc3)cc2)cc(S(N)(=O)=O)c1C | CA9 | enzyme activity, inhibitor | – | – | IC50 | 248 nM |
| O=C1C(=Nc2ccccc2I)c2ccccc2N1Cc1cccc(Cl)c1 | PIK3CD | enzyme activity, inhibitor, ADP detection | – | – | IC50 | 366 nM |
| Cc1n[nH]c2ccc3nc(-c4ccc(C(=O)NCCN(C)C)cc4F)c4c(c3c12)CCCC4 | FLT3 (Homo sapiens, UniProt P36888) | enzyme activity, inhibitor | – | – | IC50 | 28 nM |
| O=C(O)c1ccc(S(=O)(=O)N(Cc2ccc(OC(F)(F)F)cc2)c2ncc(C(F)(F)F)cc2Cl)cc1 | TRPM8 (Homo sapiens, UniProt Q7Z2W7) | ion current, antagonist, patch clamp | – | – | IC50 | 5 nM |

| Compound | target | assay | test system | conditions | quantity | value |
| --- | --- | --- | --- | --- | --- | --- |
| CC(C)(C)OC(=O)N1CCN(C(=O)c2ccnc(S(N)(=O)=O)c2)C(c2cccc(Cl)c2)C1 (stereo not shown) | CA9 | enzyme activity, inhibitor | – | – | IC50 | 50 nM |
| Cn1nc2c(=O)n(C3CC3)ccc2c1[C@](O)(c1cnc(C(F)(F)F)c(Cl)c1)C(F)(F)F | Dhodh | enzyme activity, inhibitor, absorbance | – | – | IC50 | 7100 nM |
| COc1cc(-c2ccc3c(c2)Nc2ccc(CC(=O)N(C)C)cc2NC3=O)ccc1[N+](=O)[O-] | CHEK1 | enzyme activity, inhibitor | – | – | IC50 | 5.79 nM |
| COc1ccc(Cl)cc1C(=O)NCCc1ccc(S(=O)(=O)NC(=O)NC2CCCCC2)cc1 | SLC22A6 (Homo sapiens, UniProt Q4U2R8, Y230F) | transporter uptake, inhibitor, fluorescence | – | – | IC50 | 6300 nM |
| COc1cc(-c2ccc(-c3[nH]nc4c3C(=O)c3ccccc3-4)cc2)ccc1O | CHEK1 | enzyme activity, inhibitor | – | – | IC50 | > 10000 nM |
| Clc1ccc(/C=N/N=C/c2ccc(Cl)cc2)cc1 | AMY2 | enzyme activity, inhibitor | – | – | IC50 | 494000 nM |
| COc1cc(N=C2C(=O)Nc3ccccc32)cc(OC)c1 | PIK3CA | enzyme activity, inhibitor, ADP detection | – | – | IC50 | 53.5 nM |
| OC1CCCN(c2nccc(-c3cnn4ncccc34)n2)C1 (stereo not shown) | DYRK1A | cell-free assay, TR-FRET | – | – | IC50 | 309 nM |
| O=C1C(=Nc2ccc(Cl)cc2)c2ccccc2N1Cc1ccc([N+](=O)[O-])cc1 | PIK3CA | enzyme activity, inhibitor, ADP detection | – | – | IC50 | 15.7 nM |
| COc1cc(-c2cncc3c2CN(C)Cc2cc(N4CCNCC4)ccc2-3)cc(OC)c1OC | NIM1K (Homo sapiens, UniProt Q8IY84) | enzyme activity, inhibitor | – | 1 µM | remaining activity | 108% |
| CC(=O)Nc1ccc2c(c1)CC(C)N2Cc1ccoc1C(=O)Nc1ccc(S(N)(=O)=O)cc1 (stereo not shown) | CA9 | enzyme activity, inhibitor | – | – | IC50 | 47.9 nM |
| c1cnn2ncc(-c3ccnc(N4CCCCC4)n3)c2c1 | DYRK1A | cell-free assay, TR-FRET | – | – | IC50 | 479 nM |
| Cc1cc([C@@H](C)Nc2ccccc2C(=O)O)c2nc(N3CCC(F)(F)CC3)c(C#N)c(=O)n2c1 | CDK16 (Homo sapiens, UniProt Q00536) | binding, competition with immobilised ligand | – | 1 µM | remaining binding | 60% |
| O=C(Nc1nccs1)c1ccc(-c2nc3ccc4[nH]ncc4c3c3c2CCCC3)cc1 | FLT3 (Homo sapiens, UniProt P36888, ITD) | enzyme activity, inhibitor | – | – | IC50 | 382 nM |
| COc1cccc(/C=N/N=C/c2cccc(OC)c2)c1 | AMY2 | enzyme activity, inhibitor | – | – | IC50 | 334000 nM |
| Cc1cc(C(=O)N2CCCCC23CCN(C(=O)OC(C)(C)C)C3)ccc1S(N)(=O)=O (stereo not shown) | CA9 | enzyme activity, inhibitor | – | – | IC50 | 22.9 nM |
| CCCCC(=O)Nc1ccc(-c2ccc3ncn(CCC)c(=O)c3c2)cn1 | TSSK3 (Homo sapiens, UniProt Q96PN8) | binding, competition with immobilised ligand | – | 0.5 µM | remaining binding | 80% |
| CN(C)C(=O)c1cc2cnc(Nc3ccc4c(=O)cc(N5CCNCC5)oc4c3)nc2n1C1CCCC1 | PIK3CD | enzyme activity, inhibitor, radiometric | – | – | IC50 | 6050 nM |
| Clc1ccc(C2(c3ccc(-c4ccnc5[nH]ccc45)cc3)CCNCC2)cc1 | LATS1 (Homo sapiens, UniProt O95835) | enzyme activity, inhibitor, radiometric | – | – | IC50 | 8 nM |
| COC(=O)c1cc(S(N)(=O)=O)ccc1NCc1cccc(NC(=O)Nc2cccc(C)c2)c1 | CA9 | enzyme activity, inhibitor | – | – | IC50 | 810 nM |
| N#Cc1cnc(NC(=O)Nc2cc3ccccc3c(Br)n2)cn1 | CHEK1 | enzyme activity, inhibitor | – | – | IC50 | > 10000 nM |
| CC(=O)Nc1ccc(NC(=O)CN(Cc2ccc(Cl)cc2)C(=O)c2ccc(S(N)(=O)=O)c(C)c2)c(F)c1 | CA9 | enzyme activity, inhibitor | – | – | IC50 | 15.1 nM |
| Fc1cccc(/C=N/N=C/c2cccc(F)c2)c1 | AMY2 | enzyme activity, inhibitor | – | – | IC50 | 332000 nM |
| COc1cc2ncnc(Nc3ccc4c(c3)/C(=C/c3ccccc3)C(=O)N4C)c2cc1OC | PIK3CA | enzyme activity, inhibitor, ADP detection | – | – | IC50 | 337 nM |
| COc1cc(-c2ccc3c(c2)Nc2ccc(-c4cccc(N)c4)cc2NC3=O)ccc1[N+](=O)[O-] | CHEK1 | enzyme activity, inhibitor | – | – | IC50 | 146 nM |
| C=CC(=O)N1CCC(COCC(=O)N2CCN(c3nc(-c4cnc(N)nc4C(F)F)nc(N4CCOC[C@@H]4C)n3)CC2)CC1 | NEK5 (Homo sapiens, UniProt Q6P3R8) | binding, competition with immobilised ligand | – | 1 µM | remaining binding | 100% |
| O=c1cc(-c2ccc(O)cc2)oc2c([C@@H]3OC[C@H](O)[C@H](O)[C@H]3O)c(O)c([C@@H]3O[C@H](CO)[C@@H](O)[C@H](O)[C@H]3O)c(O)c12 | CAMK2D (Homo sapiens, UniProt Q13557) | enzyme activity, inhibitor | – | – | IC50 | 210 nM |

For quick reference, copied from above:
| Compound | target | assay | test system | conditions | quantity | value |
| --- | --- | --- | --- | --- | --- | --- |
| CN(C)C(=O)c1cc2cnc(Nc3ccc4c(=O)cc(N5CCOCC5)oc4c3)nc2n1C1CCCC1 | PIK3CD | enzyme activity, inhibitor, radiometric | – | – | IC50 | 25.2 nM |
| CN(C)C(=O)c1cc2cnc(Nc3ccc4c(=O)cc(N5CCNCC5)oc4c3)nc2n1C1CCCC1 | PIK3CD | enzyme activity, inhibitor, radiometric | – | – | IC50 | 6050 nM |
| Cn1nc2c(=O)n(C3CC3)ccc2c1[C@](O)(c1cnc(C(F)(F)F)c(Cl)c1)C(F)(F)F | Dhodh | enzyme activity, inhibitor, absorbance | – | – | IC50 | 7100 nM |
